Measured values of several laboratories.
A part holds a random share of what one study measured. Values joined by “and” are separate records of one study, mostly repeats; a detail may differ.

Set 1
Target: Anoctamin-1 (ANO1, Homo sapiens, UniProt Q5XXA6, del476-501)
Observed: chloride current
Mode: inhibitor
Concentration: 10 µM
Structure (SMILES)	inhibition [%]
C=CCc1ccc(O)c(-c2ccc(O)c(CC=C)c2)c1	58.5
O=C(O)c1cc([N+](=O)[O-])ccc1NCCCc1ccccc1	26
Oc1c(Cl)cc(Cl)c(Cl)c1Cc1c(O)c(Cl)cc(Cl)c1Cl	31.8
OC(c1cc(C(F)(F)F)nc2c(C(F)(F)F)cccc12)C1CCCCN1 (stereo not shown)	61.6
Oc1ccc(Cl)cc1Cc1cc(Cl)ccc1O	41.8
N#Cc1c(C(F)(F)F)cc(O)n2c1nc1ccccc12	79.5

Set 2
Structure (SMILES): Cc1nccc(COC(=O)N2C[C@@H]3[C@@H](CNC(=O)c4ccc5[nH]nnc5c4)[C@@H]3C2)n1
Observed: cell-free assay
Technique: competition with immobilised ligand
Concentration: 1 µM
target	remaining binding [%]
STK17A (Homo sapiens, UniProt Q9UEE5)	79
CAMK2G (Homo sapiens, UniProt Q13555)	100
PRKCE (Homo sapiens, UniProt Q02156)	100
DYRK2 (Homo sapiens, UniProt Q92630)	94
PIK3CA (Homo sapiens, UniProt P42336, M1043I)	100
NUAK1 (Homo sapiens, UniProt O60285)	82
Tyrosine-protein kinase ABL1, phosphorylated (ABL1, Homo sapiens, UniProt P00519, H396P)	85
ULK2 (Homo sapiens, UniProt Q8IYT8)	77
ZAP70 (Homo sapiens, UniProt P43403)	97
CAMK1D (Homo sapiens, UniProt Q8IU85)	100
PIK3C2G (Homo sapiens, UniProt O75747)	99
BRSK2 (Homo sapiens, UniProt Q8IWQ3)	86
MYLK3 (Homo sapiens, UniProt Q32MK0)	97
Insulin receptor (INSR, Homo sapiens, UniProt P06213)	84
CHEK2 (Homo sapiens, UniProt O96017)	100
MAPK8 (Homo sapiens, UniProt P45983)	84
eIF-2-alpha kinase GCN2, C-terminal kinase domain (EIF2AK4, Homo sapiens, UniProt Q9P2K8, S808G)	84

Set 3
Cell line: A-375
Concentration: 100 µM
Time: 36 h
Compound	viability
O=[N+]([O-])c1cncn1CCN1CCOCC1	104%
CCN(CC)CCNC(=O)c1ccc(N)cc1	111%
CC(C)(C)C(=O)OCOP(=O)(COCCn1cnc2c(N)ncnc21)OCOC(=O)C(C)(C)C	17.3%
NC(=O)c1cnccn1	104%
CN/C(=N/CCSCc1nc[nH]c1C)NC#N	110%
CN1C(=O)OC(C)(C)C1=O	141%
CN(C)[C@@H]1C(O)=C(C(N)=O)C(=O)[C@@]2(O)C(O)=C3C(=O)c4c(O)ccc(Cl)c4[C@@H](O)[C@H]3C[C@@H]12	103%
Cc1cn[nH]c1	119%
CNC(=O)c1ccccc1Sc1ccc2c(/C=C/c3ccccn3)n[nH]c2c1	24.1%
C[C@H](O)C(=O)Nc1c(I)c(C(=O)NC(CO)CO)c(I)c(C(=O)NC(CO)CO)c1I	124%
CN(C)/N=N/c1[nH]cnc1C(N)=O	81.4%
CCOC(=O)C1=C[C@@H](OC(CC)CC)[C@H](NC(C)=O)[C@@H](N)C1	89.7%

Set 4
Structure (SMILES): C[C@@H]1CN(c2ccc(-c3cc(C(=O)NCCOCCOCCOCCOCCOCCOCCOCCOCCOCCNC(=O)/C=C/c4[nH]cc(C(=O)N[C@@H](CC(N)=O)c5ccc(F)c(Cl)c5)c4-c4ccc(Cl)cc4F)ccc3F)cc2NC(=O)c2c[nH]c(=O)cc2C(F)(F)F)C[C@H](C)N1C
Mode: degrader
Time: 24 h
WDR5: WD repeat-containing protein 5 (WDR5, Homo sapiens, UniProt P61964)
WDR5/DCAF1: WDR5/DCAF1 (Homo sapiens, UniProt P61964+Q9Y4B6)
target	technique	item	concentration	reference	remaining protein level
WDR5	Jess capillary immunoassay	WDR5 over vinculin	4.69 nM	DMSO	94.1% and 95% and 101%
WDR5	Jess capillary immunoassay	WDR5 over vinculin	10000 nM	DMSO	64.7% and 39.9% and 48.2%
WDR5/DCAF1	HiBiT luminescence		13.3 nM		80.3% and 89.6% and 90% and 73.4%
WDR5/DCAF1	HiBiT luminescence		585 nM		29.5% and 28.1% and 26.3% and 34.1%
WDR5	Jess capillary immunoassay	WDR5 over vinculin	777 nM	DMSO	50.8% and 54% and 63.9%
